# Published values from different studies.
# Numbered parts are unrelated; each lists some results of a single study.
# UniProt P29317, sequence (whole entry, looked up): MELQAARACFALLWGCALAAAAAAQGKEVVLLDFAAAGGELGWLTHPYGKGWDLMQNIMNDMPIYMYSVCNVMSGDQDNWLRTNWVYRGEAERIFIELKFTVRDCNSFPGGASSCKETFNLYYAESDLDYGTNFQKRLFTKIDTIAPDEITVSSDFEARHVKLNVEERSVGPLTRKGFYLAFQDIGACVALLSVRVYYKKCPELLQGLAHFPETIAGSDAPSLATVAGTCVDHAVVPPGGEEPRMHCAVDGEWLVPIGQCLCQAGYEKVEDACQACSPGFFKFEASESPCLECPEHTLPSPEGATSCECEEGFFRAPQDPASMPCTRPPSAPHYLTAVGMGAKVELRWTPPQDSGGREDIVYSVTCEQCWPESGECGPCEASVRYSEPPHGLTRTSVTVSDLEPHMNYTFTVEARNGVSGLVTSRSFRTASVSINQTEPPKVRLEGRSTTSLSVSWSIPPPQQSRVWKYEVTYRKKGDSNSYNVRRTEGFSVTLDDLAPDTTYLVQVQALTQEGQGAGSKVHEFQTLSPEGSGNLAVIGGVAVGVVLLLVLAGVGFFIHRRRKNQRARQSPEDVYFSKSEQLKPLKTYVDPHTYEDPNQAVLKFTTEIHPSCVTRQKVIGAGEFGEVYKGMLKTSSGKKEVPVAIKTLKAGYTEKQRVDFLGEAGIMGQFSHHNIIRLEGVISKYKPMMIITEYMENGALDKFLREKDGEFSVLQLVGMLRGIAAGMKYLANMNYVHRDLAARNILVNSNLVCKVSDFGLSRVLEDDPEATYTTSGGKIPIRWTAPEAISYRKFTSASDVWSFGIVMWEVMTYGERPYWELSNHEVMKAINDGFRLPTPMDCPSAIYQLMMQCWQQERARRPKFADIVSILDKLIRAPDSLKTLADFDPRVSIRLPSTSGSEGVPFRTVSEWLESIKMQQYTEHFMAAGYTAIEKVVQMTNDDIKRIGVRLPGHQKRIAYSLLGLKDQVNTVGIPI

# Block 1 — method: protein binding microarray; form: double-stranded DNA, one strand shown; medium: in vitro; concentration: not given; reference: not given; reading: higher = stronger binding
# Target: Histone acetyltransferase KAT6A, winged helix 1, GST fusion (KAT6A, Homo sapiens, UniProt Q92794, residues 1-85)
# Setting: 8-mer, flanks averaged, mean of 2 arrays, mostly near background
# Target sequence (chain): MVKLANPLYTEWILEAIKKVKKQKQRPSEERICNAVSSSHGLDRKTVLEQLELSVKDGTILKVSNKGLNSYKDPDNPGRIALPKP
Strand,E-score
TGCTTGAA,-0.106
AGTGTTTG,-0.141
GAAAGCAC,-0.292
CCTGCGAA,-0.14
TTTACAAA,-0.162
CTCAAGTC,-0.172
ACGAACTC,0.0265
ACACCACG,-0.0728

# Block 2 — method: EMSA with sequencing; form: double-stranded DNA, one strand shown; medium: in vitro; concentration: 10 and 20 nM; reference: negative control set to 0; reading: higher = stronger binding
# Target: Hepatocyte nuclear factor 3-alpha (Foxa1, Mus musculus, UniProt P35582, residues 1-468, full length assumed)
# UniProt P35582, sequence (whole entry, looked up): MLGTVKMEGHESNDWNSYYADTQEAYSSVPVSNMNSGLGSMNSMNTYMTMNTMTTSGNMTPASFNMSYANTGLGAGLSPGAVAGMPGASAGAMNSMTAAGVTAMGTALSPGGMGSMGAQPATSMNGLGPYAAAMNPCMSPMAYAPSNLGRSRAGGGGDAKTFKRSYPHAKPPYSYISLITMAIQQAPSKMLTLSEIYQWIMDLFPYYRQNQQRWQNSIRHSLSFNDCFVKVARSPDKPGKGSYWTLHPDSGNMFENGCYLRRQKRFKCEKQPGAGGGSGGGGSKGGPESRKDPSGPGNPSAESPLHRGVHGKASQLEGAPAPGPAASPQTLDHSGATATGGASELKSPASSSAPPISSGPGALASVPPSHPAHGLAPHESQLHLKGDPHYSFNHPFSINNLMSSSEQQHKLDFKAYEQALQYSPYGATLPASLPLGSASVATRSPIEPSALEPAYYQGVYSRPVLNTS
# Setting: whole designed probe, mean of two concentrations, ends assumed
# Shared flanks, not repeated: GTGAGCGGTGCCCATTGATGGGGAAC … TTTCACTGGGATCGTGGGGAC
Strand,normalised bound fraction
GTAGCCTTTTTCAGATTTCATCAAATATGGTGTTAGGGGGCCCTCATTTGTCCACAAAAAATATGGTGACAAGGGATGATGAGCTGAGTCAGAGTAAACACCATTTACTCACTTTGCGTCACTGTTTATTAGAAGGGCTGTTCGGACTTTCTAGTTGCCAAACTGGACCGTGTATGCTCTCTGAAGAGCGGGC,0.164 ratio
AAACAGTTCTGTTAGGAAAGATCAGCAAACACCACGTGCAGCAACTCAACAAGCATCTCTATCCTGCCTCTGGCGAGCACATGTTATTTCTAAGCCAACAGCGCCACCTAGTGGAAATATAAATCCTCTTCATGTGGCAAATCGCCGGTGTTTTACAGTAATACTGCAGCTTCTCAATTCTTTCTTTTTGCAC,0.0694 ratio
ATGTGGCTTTAGCTGTGTCCCAAAGATTTTGGTATGTGTTTTCTCTGTTTTCACTTATTTCAAAGAACTTTTAAATTTCTGCCTTGATATCATTGTTTACTCAAAAGTTGTTGAGGAGCCAGTTGTTTAATTTCTATGCATTTCTGTGGTTTTGAGAGATCTTCTTGGTATTGTTTTCTGTTTTTATTCTATT,0.39 ratio
ATCTTCCCCCTCTTCCTTGCCCCACCAGCTCCATTCGCCCGGTTATTTGCAGATAGGAAAATAAATAAAGCCGGCATTCGTTAACCCTCTTCTGGCGCAAACTGCTGTTTGCTCTGGATGAATCATGGTCCTTTGGCGACGCCAGGCTCCGGGAGAGCAAAGCACCGTGTCAGGGCCATGATCCGGGGTGGCC,0.329 ratio
AGGAAATGAGGGGTGAGAAGAGGAGTGCAGGTTCCAGCTTCAGGGAGGAATCCTTGGCATTTACATAGCAAACAACACCCAGGTGAGGCGGTGTGTCAACAAGGCCCAGCTCAACAGCTCCCAAGTCTCAGCATATTTTAAATGTTTGCCACATGCCAGACATTAATATTTTAACGGCTGCACGTCCGTGGCA,0.28 ratio

# Block 3 — method: universal PBM; form: double-stranded DNA, one strand shown; medium: in vitro; concentration: not given; reading: higher = stronger binding
# Target: Sal-like protein 4, full length isoform B (SALL4, Homo sapiens, UniProt Q9UJQ4-2, residues 1-616)
# Setting: 8-mer, flanks averaged, mean of replicates
Strand,E-score
TACAAGAA,0.175
AAGGTGGG,-0.25
CACTAGGC,-0.118
CCCTGTCA,-0.187
AAGAAAAG,0.11
AAGCGTTG,-0.0644
TCAAGCGA,0.00991
AAACGCAA,0.108

# Further values, each from its own experiment
Compound,target,observed,mode,concentration,reference,measurement,value
Cc1ccc(Nc2nccc(N(C)c3ccc4c(C)n(C)nc4c3)n2)cc1S(N)(=O)=O,"Ephrin type-A receptor 2 (EPHA2, Homo sapiens, UniProt P29317)",enzyme activity,inhibitor,0.5 µM,control,remaining activity,85.7%

# For quick reference, copied from above (block 3):
Strand,E-score
AAGCGTTG,-0.0644
TCAAGCGA,0.00991
AAACGCAA,0.108
